Measurements of several laboratories.
Protocols differ between the studies behind these lines. ± marks the error that the study gave.

Compound = CCCC[C@H](NC(=O)COCCOCCNC(=O)CN1CCN(CC(=O)O)CCN(CC(=O)O)CC1)C(=O)N[C@H]1CC(=O)NCCCC[C@@H](C(N)=O)NC(=O)[C@H](Cc2c[nH]c3ccccc23)NC(=O)[C@H](CCCNC(=N)N)NC(=O)[C@@H](Cc2ccccc2)NC(=O)[C@H](Cc2c[nH]cn2)NC1=O [copper-64 labelled]; system = C57 mice, bone; conditions = intravenous, 0.37 MBq, 0.5 h; tissue uptake = 2 ± 0.42 %ID/g
Compound = CC(C)C[C@H](NC(=O)[C@@H](CCCCNC(=O)CCCCCNC(=O)CN1CCN(CC(=O)O)CCN(CC(=O)O)CCN(CC(=O)O)CC1)NC(=O)[C@H](Cc1ccc(O)cc1)NC(=O)[C@H](CO)NC(=O)[C@H](Cc1c[nH]c2ccccc12)NC(=O)[C@H](Cc1cnc[nH]1)NC(=O)[C@@H]1CCC(=O)N1)C(=O)N[C@@H](CCCNC(=N)N)C(=O)N1CCC[C@H]1C(=O)NCC(N)=O [indium-111 labelled]; system = female athymic nude mouse, kidneys; conditions = intravenous, 0.037 MBq, 24 h; tissue uptake = 4.43 ± 1.67 %ID/g
Compound = N=C(N)NCCC[C@@H]1NC(=O)[C@H](CCCCNC(=O)CC[C@H](NC(=O)CC[C@H](NC(=O)CN2CCN(CC(=O)O)CCN(CC(=O)O)CCN(CC(=O)O)CC2)C(=O)N[C@@H](CCC(=O)NCCCC[C@@H]2NC(=O)[C@@H](Cc3ccccc3)NC(=O)[C@H](CC(=O)O)NC(=O)CNC(=O)[C@H](CCCNC(=N)N)NC2=O)C(=O)NCCCC[C@@H]2NC(=O)[C@@H](Cc3ccccc3)NC(=O)[C@H](CC(=O)O)NC(=O)CNC(=O)[C@H](CCCNC(=N)N)NC2=O)C(=O)NCCCC[C@@H]2NC(=O)[C@@H](Cc3ccccc3)NC(=O)[C@H](CC(=O)O)NC(=O)CNC(=O)[C@H](CCCNC(=N)N)NC2=O)NC(=O)[C@@H](Cc2ccccc2)NC(=O)[C@H](CC(=O)O)NC(=O)CNC1=O [indium-111 labelled]; system = female athymic nu/nu mice, liver; conditions = intravenous, 0.5 h; tissue uptake = 2.98 ± 0.51 %ID/g
Compound = CCCC[C@H](NC(=O)CCCCCCCNC(=O)CN1CCN(CC(=O)O)CCN(CC(=O)O)CC1)C(=O)N[C@H]1CC(=O)NCCCC[C@@H](C(N)=O)NC(=O)[C@H](Cc2c[nH]c3ccccc23)NC(=O)[C@H](CCCNC(=N)N)NC(=O)[C@@H](Cc2ccccc2)NC(=O)[C@H](Cc2c[nH]cn2)NC1=O [copper-64 labelled]; system = C57 mice, liver; conditions = intravenous, 0.37 MBq, 2 h; tissue uptake = 2.19 ± 0.14 %ID/g
Compound = N=C(N)NCCC[C@@H]1NC(=O)[C@H](CCCCNC(=O)CNC(=O)CNC(=O)CNC(=O)CC[C@H](NC(=O)CNC(=O)CNC(=O)CNC(=O)CN2CCN(CC(=O)O)CCN(CC(=O)O)CCN(CC(=O)O)CC2)C(=O)NCC(=O)NCC(=O)NCC(=O)NCCCC[C@@H]2NC(=O)[C@@H](Cc3ccccc3)NC(=O)[C@H](CC(=O)O)NC(=O)CNC(=O)[C@H](CCCNC(=N)N)NC2=O)NC(=O)[C@@H](Cc2ccccc2)NC(=O)[C@H](CC(=O)O)NC(=O)CNC1=O [indium-111 labelled]; system = female athymic nu/nu mice, spleen; conditions = intravenous, 111 kBq, 24 h; tissue uptake = 0.91 ± 0.1 %ID/g
Compound = CC(C)C[C@H](NC(=O)[C@H](Cc1ccc(O)cc1)NC(=O)[C@@H](CCCNC(=N)N)NC(=O)[C@@H](CO)NC(=O)[C@H](Cc1ccccc1)NC(=O)[C@H](CC1CCCCC1)NC(=O)[C@H](CC(=O)O)NC(=O)CN1CCCN2CCN(CCCN(CC(=O)O)CC2)CC1)C(=O)N[C@@H](Cc1c[nH]c2ccccc12)C(=O)N[C@@H](CO)C(=O)O [copper-64 labelled]; system = female NMRI nude mice, heart; conditions = 22 h p.i.; tissue uptake = 1 ± 0.2 %ID/g
Compound = CCCC[C@H](NC(=O)CNC(=O)CNC(=O)CN1CCN(CC(=O)O)CCN(CC(=O)O)CCN(CC(=O)O)CC1)C(=O)N[C@H]1CC(=O)NCCCC[C@@H](C(N)=O)NC(=O)[C@H](Cc2c[nH]c3ccccc23)NC(=O)[C@H](CCCNC(=N)N)NC(=O)[C@@H](Cc2ccccc2)NC(=O)[C@H](Cc2c[nH]cn2)NC1=O [lutetium-177 labelled]; system = C57 mouse, female, pancreas; conditions = intravenous, 0.037 MBq, 2 h; tissue uptake = 0.2 ± 0.05 %ID/g
Compound = N=C(N)NCCC[C@@H]1NC(=O)[C@H](CCCCNC(=O)CNC(=O)CNC(=O)CNC(=O)CC[C@H](NC(=O)CNC(=O)CNC(=O)CNC(=O)CC[C@H](NC(=O)CN2CCN(CC(=O)O)CCN(CC(=O)O)CCN(CC(=O)O)CC2)C(=O)NCC(=O)NCC(=O)NCC(=O)N[C@@H](CCC(=O)NCC(=O)NCC(=O)NCC(=O)NCCCC[C@@H]2NC(=O)[C@@H](Cc3ccccc3)NC(=O)[C@H](CC(=O)O)NC(=O)CNC(=O)[C@H](CCCNC(=N)N)NC2=O)C(=O)NCC(=O)NCC(=O)NCC(=O)NCCCC[C@@H]2NC(=O)[C@@H](Cc3ccccc3)NC(=O)[C@H](CC(=O)O)NC(=O)CNC(=O)[C@H](CCCNC(=N)N)NC2=O)C(=O)NCC(=O)NCC(=O)NCC(=O)NCCCC[C@@H]2NC(=O)[C@@H](Cc3ccccc3)NC(=O)[C@H](CC(=O)O)NC(=O)CNC(=O)[C@H](CCCNC(=N)N)NC2=O)NC(=O)[C@@H](Cc2ccccc2)NC(=O)[C@H](CC(=O)O)NC(=O)CNC1=O [indium-111 labelled]; system = female athymic nu/nu mice, U87MG tumour; conditions = intravenous, 111 kBq, 4 h; tissue uptake = 8.99 ± 2.61 %ID/g
Compound = CCCC[C@H](NC(=O)CNC(=O)CNC(=O)CN1CCN(CC(=O)O)CCN(CC(=O)O)CC1)C(=O)N[C@H]1CC(=O)NCCCC[C@@H](C(N)=O)NC(=O)[C@H](Cc2c[nH]c3ccccc23)NC(=O)[C@H](CCCNC(=N)N)NC(=O)[C@@H](Cc2ccccc2)NC(=O)[C@H](Cc2c[nH]cn2)NC1=O [technetium-99m labelled]; system = C57 mouse, lung; conditions = iv, 0.037 MBq, 0.5 h; tissue uptake = 2.11 ± 0.65 %ID/g

Repeated from above:
Compound = N=C(N)NCCC[C@@H]1NC(=O)[C@H](CCCCNC(=O)CNC(=O)CNC(=O)CNC(=O)CC[C@H](NC(=O)CNC(=O)CNC(=O)CNC(=O)CN2CCN(CC(=O)O)CCN(CC(=O)O)CCN(CC(=O)O)CC2)C(=O)NCC(=O)NCC(=O)NCC(=O)NCCCC[C@@H]2NC(=O)[C@@H](Cc3ccccc3)NC(=O)[C@H](CC(=O)O)NC(=O)CNC(=O)[C@H](CCCNC(=N)N)NC2=O)NC(=O)[C@@H](Cc2ccccc2)NC(=O)[C@H](CC(=O)O)NC(=O)CNC1=O [indium-111 labelled]; system = female athymic nu/nu mice, spleen; conditions = intravenous, 111 kBq, 24 h; tissue uptake = 0.91 ± 0.1 %ID/g
Compound = CC(C)C[C@H](NC(=O)[C@H](Cc1ccc(O)cc1)NC(=O)[C@@H](CCCNC(=N)N)NC(=O)[C@@H](CO)NC(=O)[C@H](Cc1ccccc1)NC(=O)[C@H](CC1CCCCC1)NC(=O)[C@H](CC(=O)O)NC(=O)CN1CCCN2CCN(CCCN(CC(=O)O)CC2)CC1)C(=O)N[C@@H](Cc1c[nH]c2ccccc12)C(=O)N[C@@H](CO)C(=O)O [copper-64 labelled]; system = female NMRI nude mice, heart; conditions = 22 h p.i.; tissue uptake = 1 ± 0.2 %ID/g
